Assay results from different studies.
Compare with care: the assays were run in different laboratories. ± gives the spread as reported.

| SMILES | target | assay | test system | conditions | how to read | measurement | result |
| --- | --- | --- | --- | --- | --- | --- | --- |
| COC(=O)C1C(OC(c2ccc(Cl)cc2)c2ccc(Cl)cc2)CC2CCC1N2C (single isomer, unassigned) | DRD1 (Homo sapiens, UniProt P21728) | binding, radioligand displacement | – | inactive if below 75% at 10000 nM, together with: [3H]SCH 23390 | – | Ki | inactive |
| N=C(N)SCc1ccc(B(O)O)cc1 | Cathepsin B (CTSB, Homo sapiens, UniProt P07858) | enzyme activity, inhibitor | – | up to 10 µM, together with: Z-FR-AMC 10 µM | – | IC50 | inactive |
| COc1ccc2cc1Oc1ccc(cc1)C[C@H]1c3cc(c(OC)cc3CC[N@+]1(C)CCc1c[nH]c3ccccc13)Oc1c(OC)c(OC)cc3c1[C@H](C2)[N@@+](C)(CCc1c[nH]c2ccccc12)CC3 | poly(dA)·poly(dT) 18-bp dsDNA | DNA binding, ethidium bromide displacement | phosphate buffer, 10% DMSO | pH 7.2, 25 °C, dsDNA 10 µM, 10 mM NaCl, together with: ethidium bromide 5 µM | – | Stern-Volmer constant | 23200 M⁻¹ |
| O=C(CN1CCN(c2cc3c(cc2F)c(=O)c(C(=O)O)cn3C2CC2)CC1)Nc1ccc(Cl)cc1 | Tubulin beta chain (Sus scrofa, UniProt P02554) | fluorescence | – | 3 µM | – | polymerization rate | no effect |
| CC(C)C[C@H](NC(=O)[C@H](CC(C)C)NC(=O)[C@H](CC(N)=O)NC(=O)[C@H](Cc1c[nH]c2ccccc12)NC(=O)[C@H](Cc1ccc(O)cc1)NC(=O)[C@H](CCC(=O)O)NC(=O)[C@H](C)NC(=O)[C@@H](N)Cc1ccccc1)C(=O)O | MDM2 (Homo sapiens, UniProt Q00987) | SPR competition binding | – | – | baseline: PMI | ΔΔG | 4.62 kcal/mol |
| CC(=O)N[C@H]1[C@@H](OC[C@H](NC(=O)CNC(=O)[C@@H]2CCCN2C(=O)[C@H](C)NC(=O)[C@@H]2CCCN2C(=O)[C@@H](N)CCCNC(=N)N)C(=O)N[C@H](C(=O)N[C@@H](C)C(=O)N2CCC[C@H]2C(=O)N2CCC[C@H]2C(=O)N[C@@H](C)C(=O)N[C@@H](Cc2c[nH]cn2)C(=O)NCC(=O)O)[C@@H](C)O[C@H]2O[C@H](CO)[C@H](O)[C@H](O)[C@H]2NC(C)=O)O[C@H](CO)[C@H](O)[C@@H]1O | anti-MUC1 Fab 14 A wild type, murine | SPR | – | – | baseline: Glyco-T | kd decrease | 4 fold |
| CCOC(=O)/C=C/[C@H](C[C@@H]1CCNC1=O)NC(=O)[C@H](Cc1ccccc1)NC(=O)[C@H](COC(C)(C)C)NC(=O)OCc1ccccc1 | Genome polyprotein, 3C protease (Coxsackievirus B3, UniProt P03313) | protease activity, cell-based reporter | COS-1 | 50 µM | – | FLuc reporter expression | increased |
| CCC(C)Sc1nc2c([nH]1)c(=S)n(C)c(=O)n2C (stereo not shown) | Estrogen receptor (ESR1, Homo sapiens, UniProt P03372) | reporter gene, ERE luciferase | T47D-KBluc | 10 µM, 24 h, together with: estradiol 5 nM | baseline: maximal luciferase activity | reporter activity | 85% |
| C[C@@H]1NC(=O)[C@H](CCCNC(=N)N)NC(=O)[C@H](NC(=O)[C@H](Cc2ccccc2)NC(=O)CNC(=O)CNC(=O)[C@H](Cc2ccc(O)cc2)NCc2ccccc2)CC(=O)NC[C@@H](C(=O)N[C@@H](CCCNC(=N)N)C(=O)N2CCC[C@H]2C(=O)N[C@@H](CCCCN)C(N)=O)NC1=O | Oprk1 (Rattus norvegicus, UniProt P34975) | binding | – | – | baseline: zyklophin | affinity fold decrease | 3 fold |
| C[C@@]12CC[C@@H]3c4ccc(O)c(Cl)c4CC[C@H]3[C@@H]1CCC2=O | AKR1C1 (Homo sapiens, UniProt Q04828) | enzyme activity, inhibitor, absorbance | – | 100 µM, pH 9 | – | inhibition | 22.5% |
| O=C(O)COc1ccc(Cl)cc1 | Chloride channel protein (Torpedo marmorata, UniProt P21564, C212S) | chloride current, inhibitor, inside-out patch clamp | – | 20 mM, 140 mV, unit not given | baseline: control current | remaining current | 0.89 |
| CCN(Cc1ccccc1)C(=O)CCc1nc(CN2CCN(C(=O)Cc3ccc(OC)c(OC)c3)CC2)no1 | Sodium channel protein type 11 subunit alpha (Scn11a, Rattus norvegicus, UniProt O88457) | sodium current, whole-cell patch clamp | rat DRG neurons | 3 µM | – | inactivation V1/2 | -97.3 ± 11.6 mV |
| CCCS(=O)(=O)Nc1ccccc1C(=O)O | Beta-lactamase (ampC, Escherichia coli K-12, UniProt P00811) | – | – | – | – | ligand efficiency | 0.35 |
| CC(C)CC(NC(=O)C(NC(=O)NC(C(=O)O)C(C)C)C1CCNC(=N)N1)C(=O)NCCCNC(C(=O)O)C(OC1OC(CN)C(O)C1O)C1OC(n2ccc(=O)[nH]c2=O)C(O)C1O (stereo not shown) | mraY (Aquifex aeolicus, UniProt O66465) | isothermal titration calorimetry | – | concentration not given, wild type, together with: Mg2+ | – | binding stoichiometry | 0.62 ± 0.02 |
| CC(C)C[C@H](NC(=O)CNC(=O)[C@@H](NC(=O)[C@H](CO)NC(=O)[C@H](CCCCN)NC(=O)[C@H](CC(C)C)NC(=O)C1(NC(=O)[C@H](CCC(=O)O)NC(=O)[C@H](CC(C)C)NC(=O)[C@@H](N)C(C)C)CC(C)(C)N([O])C(C)(C)C1)C(C)C)C(=O)N[C@@H](Cc1ccccc1)C(=O)O | Rhodopsin, photoactivated (Meta II) (RHO, Bos taurus, UniProt P02699) | binding to R*, time-resolved EPR | – | 250 and 50 µM, pH 6.8, together with: 250 µM rhodopsin, laser flash | – | apparent lifetime | ~6 ms |
| CC[C@H](C)[C@H](NC(=O)[C@H](CCC(N)=O)NC(=O)[C@H](CC(C)C)NC(=O)[C@@H](NC(=O)CNC(=O)[C@H](Cc1ccc(O)cc1)NC(=O)[C@H](CC(=O)O)NC(=O)[C@@H](NC(=O)[C@H](CO)NC(=O)CNC(=O)[C@H](CC(=O)O)NC(=O)[C@@H](NC(=O)[C@H](CC(N)=O)NC(=O)[C@H](CCCNC(=N)N)NC(=O)[C@H](CC(N)=O)NC(=O)[C@@H](NC(=O)[C@H](C)NC(=O)[C@H](CCC(N)=O)NC(=O)[C@@H](NC(=O)[C@H](CC(N)=O)NC(=O)[C@H](Cc1ccccc1)NC(=O)[C@H](CC(N)=O)NC(=O)[C@H](CO)NC(=O)[C@H](CCC(=O)O)NC(=O)[C@H](Cc1ccccc1)NC(=O)[C@H](CCCCN)NC(=O)[C@H](C)NC(=O)[C@H](C)NC(=O)[C@H](CO)NC(=O)[C@@H](NC(=O)[C@H](Cc1c[nH]c2ccccc12)NC(=O)[C@H](CC(N)=O)NC(=O)CNC(=O)[C@H](CC(C)C)NC(=O)[C@H](CO)NC(=O)[C@H](Cc1ccc(O)cc1)NC(=O)CNC(=O)[C@H](CCCNC(=N)N)NC(=O)[C@H](Cc1ccc(O)cc1)NC(=O)[C@H](CC(N)=O)NC(=O)[C@@H](N)CC(=O)O)C(C)C)[C@@H](C)O)[C@@H](C)O)[C@@H](C)O)[C@@H](C)O)[C@@H](C)CC)C(=O)O | Periplasmic serine endoprotease DegP (degP, Escherichia coli, UniProt P0C0V0, S236A) | oligomer formation, sedimentation velocity | – | 30 µM, together with: protein 20 µM | – | 24-mers fraction | 7% |
| N#CC1(c2ccc3c(N)ncnn23)OC(COP(=O)(O)OP(=O)(O)OP(=O)(O)O)C(O)C1O (stereo not shown) | Albumin (ALB, Homo sapiens, UniProt P02768) | binding, native ESI-FT-ICR MS | – | 3 µM, saturation curve | – | bound fraction | 0.9227 ± 0.0067 |
| c1cnc2c(c1)c1nccnc1c1cccnc12 | TAS2R5 (Homo sapiens, UniProt Q9NYW4) | intracellular calcium, agonist | D9 cells expressing TAS2R5 | – | – | log(Emax/EC50) | 5.9 |
| Cc1nc(=O)c(C[n+]2csc(CCO)c2C)c[nH]1 | nicotinamide riboside transporter PnuT (Shewanella woodyi, UniProt B1KPL9) | binding, isothermal titration calorimetry | purified detergent-solubilized protein | 25 °C | – | ΔS | 14 ± 19 J/mol/K |
| Cc1sc2c(c1C)C(c1ccc(Cl)cc1)=N[C@@H](CC(=O)NCCCNC(=O)c1cc([N+](=O)[O-])ccc1F)c1nnc(C)n1-2 | BRD4 (Homo sapiens, UniProt O60885) | degrader | Jurkat | – | – | Dmax | 58% |
| Nc1nc(N)c2ncn([C@@H]3O[C@@H]4COP(=O)(O)O[C@H]5[C@@H](O)[C@H](n6cnc7c(N)nc(N)nc76)O[C@@H]5COP(=O)(O)O[C@H]4[C@H]3O)c2n1 | ydaO riboswitch wild type (Bacillus subtilis) | competition gel-shift | – | concentration not given | baseline: c-di-AMP, higher = weaker binding | binding affinity fold loss | > 2.7e+06 |
| C[N+]1([O-])CCN(C2=Nc3cc(Cl)ccc3Nc3ccccc32)CC1 | CHRM3 (Homo sapiens, UniProt P20309, A239G/Y149C) | calcium signal, agonist, FLIPR | – | – | baseline: clozapine N-oxide | Emax | 100% |

Repeated from above:
| SMILES | target | assay | test system | conditions | how to read | measurement | result |
| --- | --- | --- | --- | --- | --- | --- | --- |
| CCCS(=O)(=O)Nc1ccccc1C(=O)O | Beta-lactamase (ampC, Escherichia coli K-12, UniProt P00811) | – | – | – | – | ligand efficiency | 0.35 |
